Published values from different studies.
Each line is one published result; not all experiments were run side by side.

Structure (SMILES)	organism	assay	system	setting	how to read	inhibition
C[C@H](NC(=O)[C@@H](O)c1cc(F)cc(F)c1)C(=O)N[C@@H]1C(=O)N(C)c2ccccc2-c2ccccc21	dengue virus 2	viral infection, luciferase reporter virus		3 nM, 48 h		20.2%
COc1ccc2nc3cc(Cl)ccc3c(NCCNC(C)=C3C(=O)C=C4Oc5c(C(C)=O)c(O)c(C)c(O)c5C4(C)C3=O)c2c1 (stereo not shown)	Plasmodium berghei	parasitaemia	ANKA GFP, mouse NMRI	intraperitoneal, 4 × 50 mg/kg, day 4 post infection		0%
Cc1ccc(N2CC3CC(C2)N3C)cc1C(=O)NC1(c2ccc3c4c(cccc24)C(=O)N3C)CC1	Betacoronavirus 1	viral replication	Huh-7, OC43	12.5 µM		0%
C[C@@H](N)[C@H](O)CCCCCCCC(=O)CCCCCCCCCCCCCC[C@@H](O[C@@H]1O[C@H](CO)[C@H](O)[C@H](O)[C@H]1O)[C@H](N)CO	Pseudomonas aeruginosa	microbial growth, resazurin	ATCC27853	50 µM		98%
CCOC(=O)C1(CC#N)Oc2cc(F)ccc2N(CC#N)C1=O (stereo not shown)	Arabidopsis thaliana	root length, petri dish germination	Col-0, 1/2 MS medium	200 µg/mL, 7 days, 22 °C, dark		100%
O=C(NNc1ccc(Cl)cc1)c1nnc(CC23CC4CC(CC(C4)C2)C3)o1	Botryosphaeria dothidea	fungal growth, inhibitor		50 µg/mL		100%
CCOC(=O)C1(CC)Oc2cc(F)ccc2N(CC)C1=O (stereo not shown)	Arabidopsis thaliana	stem length, petri dish germination	Col-0, 1/2 MS medium	50 µg/mL, 7 days, 22 °C, dark		78.3%
Nc1nc2ccc(S(=O)(=O)c3cn[nH]c3)cc2s1	Pseudomonas aeruginosa	swarming area, modified FAB agar	PA14-lux	200 µM, 24 h	reference: DMSO vehicle	26%
CCOC(=O)C1(Cc2cc(F)cc(F)c2)Oc2cc(F)ccc2N(Cc2cc(F)cc(F)c2)C1=O (stereo not shown)	Arabidopsis thaliana	root length, petri dish germination	Col-0, 1/2 MS medium	200 µg/mL, 7 days, 22 °C, dark		52.9%
N=C(N)NCCC[C@H](NC(=O)[C@H](Cc1c[nH]c2ccccc12)NC(=O)[C@H](CCCNC(=N)N)NC(=O)[C@H](CCCNC(=N)N)NC(=O)[C@@H]1CCCN1C(=O)[C@H](CCCCN)NC(=O)[C@@H](N)CCCNC(=N)N)C(=O)N[C@@H](Cc1c[nH]c2ccccc12)C(=O)N[C@@H](Cc1c[nH]c2ccccc12)C(=O)N1CCC[C@H]1C(=O)N[C@@H](CCCCN)C(=O)N[C@@H](CCCNC(=N)N)C(=O)N1CCC[C@H]1C(=O)O	Candida albicans	growth	ATCC 10231, potato dextrose broth	128 µM, 30 °C		1 fraction (0-1)
